Assay results gathered from unrelated publications.
Protocols differ between the studies behind these lines. Numbers after ± are the reported error.
Chain of UniProt P11234 (whole entry, unmodified, looked up): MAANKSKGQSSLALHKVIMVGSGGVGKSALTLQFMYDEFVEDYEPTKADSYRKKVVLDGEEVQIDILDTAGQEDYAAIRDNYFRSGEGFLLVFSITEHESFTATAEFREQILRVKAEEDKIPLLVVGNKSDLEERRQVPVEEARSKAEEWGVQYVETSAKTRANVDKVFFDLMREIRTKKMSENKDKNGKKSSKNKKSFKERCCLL
Chain of UniProt Q6ZN16 (whole entry, looked up): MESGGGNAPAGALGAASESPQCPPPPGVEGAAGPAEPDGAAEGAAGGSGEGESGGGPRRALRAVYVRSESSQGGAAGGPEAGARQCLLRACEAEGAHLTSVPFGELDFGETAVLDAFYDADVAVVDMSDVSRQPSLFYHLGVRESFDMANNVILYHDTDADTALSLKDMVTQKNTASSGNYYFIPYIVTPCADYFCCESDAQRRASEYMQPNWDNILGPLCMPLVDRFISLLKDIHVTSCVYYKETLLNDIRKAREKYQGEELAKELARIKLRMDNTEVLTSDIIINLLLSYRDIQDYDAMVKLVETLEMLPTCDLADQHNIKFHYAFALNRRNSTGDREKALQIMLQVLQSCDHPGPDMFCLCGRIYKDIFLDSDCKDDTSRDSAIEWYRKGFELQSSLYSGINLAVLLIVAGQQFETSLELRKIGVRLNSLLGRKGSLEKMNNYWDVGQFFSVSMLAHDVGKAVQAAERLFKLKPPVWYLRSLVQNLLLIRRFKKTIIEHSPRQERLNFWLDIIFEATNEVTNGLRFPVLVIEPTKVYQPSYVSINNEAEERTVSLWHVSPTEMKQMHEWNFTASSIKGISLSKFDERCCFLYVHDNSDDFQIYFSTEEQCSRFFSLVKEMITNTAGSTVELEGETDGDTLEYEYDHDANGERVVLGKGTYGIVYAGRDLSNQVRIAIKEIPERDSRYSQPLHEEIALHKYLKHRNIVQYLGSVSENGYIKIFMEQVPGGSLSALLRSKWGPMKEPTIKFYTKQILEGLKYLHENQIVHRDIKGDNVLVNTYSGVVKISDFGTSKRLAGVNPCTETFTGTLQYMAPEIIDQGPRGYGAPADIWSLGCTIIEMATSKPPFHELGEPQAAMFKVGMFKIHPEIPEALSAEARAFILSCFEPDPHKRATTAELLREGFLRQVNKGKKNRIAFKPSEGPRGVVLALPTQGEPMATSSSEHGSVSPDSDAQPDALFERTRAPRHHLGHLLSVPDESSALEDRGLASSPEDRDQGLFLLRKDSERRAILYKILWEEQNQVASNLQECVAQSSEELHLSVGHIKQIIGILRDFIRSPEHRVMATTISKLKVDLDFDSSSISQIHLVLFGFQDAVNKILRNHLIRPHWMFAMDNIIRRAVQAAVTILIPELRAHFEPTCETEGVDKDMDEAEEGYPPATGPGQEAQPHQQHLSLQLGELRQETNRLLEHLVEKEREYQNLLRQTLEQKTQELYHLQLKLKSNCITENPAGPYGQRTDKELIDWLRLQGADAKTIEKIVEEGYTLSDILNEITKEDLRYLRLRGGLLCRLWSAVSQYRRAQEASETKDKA
Chain of UniProt Q6P988 (whole entry, looked up): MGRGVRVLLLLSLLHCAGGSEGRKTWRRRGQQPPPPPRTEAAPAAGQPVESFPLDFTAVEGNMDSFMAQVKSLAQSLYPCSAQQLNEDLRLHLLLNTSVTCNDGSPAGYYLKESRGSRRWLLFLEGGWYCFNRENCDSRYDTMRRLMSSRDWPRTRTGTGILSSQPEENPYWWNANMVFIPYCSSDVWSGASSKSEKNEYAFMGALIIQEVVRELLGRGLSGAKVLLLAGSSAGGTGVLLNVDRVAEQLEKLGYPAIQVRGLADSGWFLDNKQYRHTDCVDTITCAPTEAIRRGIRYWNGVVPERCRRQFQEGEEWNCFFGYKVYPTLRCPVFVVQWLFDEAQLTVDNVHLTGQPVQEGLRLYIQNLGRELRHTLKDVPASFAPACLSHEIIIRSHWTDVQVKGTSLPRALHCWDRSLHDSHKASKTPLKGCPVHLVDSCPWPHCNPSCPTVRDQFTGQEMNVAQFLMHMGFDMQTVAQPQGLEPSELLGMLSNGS
Chain of UniProt P31323 (whole entry, looked up): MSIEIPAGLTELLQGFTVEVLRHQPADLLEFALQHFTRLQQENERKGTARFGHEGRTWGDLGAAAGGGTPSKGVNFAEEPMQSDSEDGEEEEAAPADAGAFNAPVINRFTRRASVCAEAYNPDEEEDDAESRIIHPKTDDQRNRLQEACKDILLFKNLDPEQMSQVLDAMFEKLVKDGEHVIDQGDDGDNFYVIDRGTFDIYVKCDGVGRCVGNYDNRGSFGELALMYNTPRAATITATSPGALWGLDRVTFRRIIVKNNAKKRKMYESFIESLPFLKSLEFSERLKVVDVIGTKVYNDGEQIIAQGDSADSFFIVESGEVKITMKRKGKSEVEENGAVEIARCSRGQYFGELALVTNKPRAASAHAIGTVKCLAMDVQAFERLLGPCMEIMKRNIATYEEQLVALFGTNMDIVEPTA
Chain of UniProt P50391 (whole entry, looked up): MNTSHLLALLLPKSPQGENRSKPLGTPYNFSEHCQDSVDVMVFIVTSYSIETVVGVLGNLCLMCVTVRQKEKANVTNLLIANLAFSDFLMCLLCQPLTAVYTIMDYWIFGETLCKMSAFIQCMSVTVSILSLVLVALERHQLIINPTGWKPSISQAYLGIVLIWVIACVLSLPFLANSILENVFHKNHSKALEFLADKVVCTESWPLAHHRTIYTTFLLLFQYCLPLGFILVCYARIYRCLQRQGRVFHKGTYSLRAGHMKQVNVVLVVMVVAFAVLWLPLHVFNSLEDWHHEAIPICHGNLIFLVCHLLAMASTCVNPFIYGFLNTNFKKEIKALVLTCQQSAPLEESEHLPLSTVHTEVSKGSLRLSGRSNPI
Chain of UniProt P43116 (whole entry, looked up): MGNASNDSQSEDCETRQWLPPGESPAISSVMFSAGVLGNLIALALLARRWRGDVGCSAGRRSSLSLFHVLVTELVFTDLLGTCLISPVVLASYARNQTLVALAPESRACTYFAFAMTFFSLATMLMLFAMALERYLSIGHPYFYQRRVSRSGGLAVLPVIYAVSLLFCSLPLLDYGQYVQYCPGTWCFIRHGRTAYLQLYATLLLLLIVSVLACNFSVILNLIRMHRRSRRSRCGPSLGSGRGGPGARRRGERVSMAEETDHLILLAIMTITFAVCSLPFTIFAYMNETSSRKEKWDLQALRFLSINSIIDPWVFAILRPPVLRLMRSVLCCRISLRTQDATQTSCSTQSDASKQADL
Chain of UniProt O15218 (whole entry, looked up): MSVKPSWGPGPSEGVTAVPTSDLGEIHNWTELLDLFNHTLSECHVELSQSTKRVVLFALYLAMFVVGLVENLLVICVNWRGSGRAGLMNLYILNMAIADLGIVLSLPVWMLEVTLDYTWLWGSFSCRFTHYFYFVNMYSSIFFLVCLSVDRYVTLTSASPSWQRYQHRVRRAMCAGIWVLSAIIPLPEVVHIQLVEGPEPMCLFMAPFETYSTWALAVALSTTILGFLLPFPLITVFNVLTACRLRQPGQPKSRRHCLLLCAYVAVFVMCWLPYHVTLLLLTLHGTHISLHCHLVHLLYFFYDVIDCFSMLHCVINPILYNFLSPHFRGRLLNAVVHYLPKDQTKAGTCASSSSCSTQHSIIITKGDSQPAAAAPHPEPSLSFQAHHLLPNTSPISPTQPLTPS
Chain of UniProt Q13258 (whole entry, looked up): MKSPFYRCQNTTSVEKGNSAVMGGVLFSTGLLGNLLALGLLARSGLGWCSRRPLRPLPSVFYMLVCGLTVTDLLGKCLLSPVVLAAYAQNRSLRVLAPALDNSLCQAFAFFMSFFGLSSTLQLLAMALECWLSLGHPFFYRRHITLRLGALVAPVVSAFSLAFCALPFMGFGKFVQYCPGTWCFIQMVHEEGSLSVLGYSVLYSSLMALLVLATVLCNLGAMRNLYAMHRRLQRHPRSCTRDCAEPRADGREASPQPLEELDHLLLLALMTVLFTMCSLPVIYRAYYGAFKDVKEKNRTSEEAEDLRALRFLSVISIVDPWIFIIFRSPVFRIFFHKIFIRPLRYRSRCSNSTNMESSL
Chain of UniProt P56373 (whole entry, looked up): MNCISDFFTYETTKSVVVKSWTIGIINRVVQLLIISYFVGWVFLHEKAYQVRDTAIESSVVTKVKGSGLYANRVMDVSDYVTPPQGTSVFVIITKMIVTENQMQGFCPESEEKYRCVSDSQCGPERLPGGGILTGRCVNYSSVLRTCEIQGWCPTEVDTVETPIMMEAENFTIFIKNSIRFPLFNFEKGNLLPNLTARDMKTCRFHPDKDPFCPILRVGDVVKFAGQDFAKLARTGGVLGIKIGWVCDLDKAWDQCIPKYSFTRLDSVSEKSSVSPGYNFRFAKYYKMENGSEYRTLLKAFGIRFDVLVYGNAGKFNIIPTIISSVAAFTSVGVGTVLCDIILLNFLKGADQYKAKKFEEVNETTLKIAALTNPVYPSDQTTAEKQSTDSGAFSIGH
Chain of UniProt O60285 (whole entry, looked up): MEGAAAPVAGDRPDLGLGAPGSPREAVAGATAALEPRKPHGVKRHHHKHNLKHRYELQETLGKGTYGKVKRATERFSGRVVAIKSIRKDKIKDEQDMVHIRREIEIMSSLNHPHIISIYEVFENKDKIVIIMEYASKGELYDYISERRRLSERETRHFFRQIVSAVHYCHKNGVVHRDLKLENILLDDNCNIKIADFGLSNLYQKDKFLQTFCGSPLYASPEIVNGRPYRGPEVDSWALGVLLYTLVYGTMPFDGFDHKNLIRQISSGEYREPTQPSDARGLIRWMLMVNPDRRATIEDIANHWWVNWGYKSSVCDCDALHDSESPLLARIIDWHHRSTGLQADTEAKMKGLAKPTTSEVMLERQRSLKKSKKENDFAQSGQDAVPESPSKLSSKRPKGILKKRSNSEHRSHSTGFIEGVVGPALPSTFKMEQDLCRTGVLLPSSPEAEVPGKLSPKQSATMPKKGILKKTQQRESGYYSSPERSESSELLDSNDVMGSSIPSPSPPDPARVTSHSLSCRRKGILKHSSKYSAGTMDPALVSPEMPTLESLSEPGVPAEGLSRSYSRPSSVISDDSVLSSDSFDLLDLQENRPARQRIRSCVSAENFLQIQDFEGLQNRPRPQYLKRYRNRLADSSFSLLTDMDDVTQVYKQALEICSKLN

| SMILES | target | test | system | setting | how to read | quantity | value |
| --- | --- | --- | --- | --- | --- | --- | --- |
| O=C(Nc1cccnn1)N1CCC(=Cc2cccc(Oc3ccc(C(F)(F)F)cn3)c2)CC1 | PTGDR (Homo sapiens, UniProt Q13258) | radioligand binding, inhibitor |  | 10 µM, human, together with: [3H]prostaglandin D2 |  | inhibition | 23% |
| O=C1NC(=O)[C@](CNC(=O)c2cnn(-c3ccccc3)n2)(C2CC2)N1 | Prothrombin (F2, Homo sapiens, UniProt P00734) | inhibitor |  | concentration not given |  | activity | inactive |
| CN(C(=O)n1cnc(-c2ccc[n+]([O-])c2)c1)C1CCCCC1 | Faah (Rattus norvegicus, UniProt P97612) | enzyme activity, ABPP | rat, brain | oral, 30 mg/kg/day, 1 days | relative to: vehicle | fold change | -94.6 |
| COc1cc(Nc2ncc(F)c(Nc3ccc4c(n3)NC(=O)C(C)(C)O4)n2)cc(OC)c1OC | MAP3K15 (Homo sapiens, UniProt Q6ZN16) | KINOMEscan |  | 10 µM |  | inhibition | 51% |
| O=C(Nc1cnccc1Cl)N1CCN(Cc2ccc3c(c2)OC(F)(F)O3)CC1 | PTGER2 (Homo sapiens, UniProt P43116) | radioligand binding, inhibitor |  | 50 µM, human, together with: [3H]prostaglandin E2 |  | inhibition | 2% |
| COc1cc(F)cc(NS(=O)(=O)c2ccc(S(=O)(=O)F)c3c2CCCC3)c1 | RALB (Homo sapiens, UniProt P11234, Y82F) | inhibitor, BODIPY-FL-GDP exchange |  | concentration not given, 24 h, 4 °C, together with: Rgl2 |  | nucleotide exchange | no inhibition |
| C[C@H]1CN(c2n[nH]c3nc(N[C@H]4CC[C@H](NS(=O)(=O)CCC(F)(F)F)CC4)ncc23)CCO1 | PRKAR2B (Homo sapiens, UniProt P31323) | inhibitor, Kinobeads competition profiling |  | 0.16 µM | relative to: vehicle | relative abundance | 1.02 |
| [2H]c1c([2H])c([C@]2([2H])CCCN2C(=O)C(C)(C)Oc2ccc3cn[nH]c3c2)c([2H])c([2H])c1C([2H])([2H])[2H] | NUAK1 (Homo sapiens, UniProt O60285) | KINOMEscan |  | 1 µM | relative to: DMSO control | remaining binding | 86% |
| CN1CCN(c2cc(-c3ccncc3)c(-c3ccc4ccccc4c3)nn2)CC1 | NPY4R (Homo sapiens, UniProt P50391) | agonist, FLIPR |  | 12.5 µM |  | activation | 0.4% |
| COc1ccc(N2C(=O)N(c3c(C)cccc3Cl)Cc3cnc(Nc4ccc(C5CCN(C)CC5)cc4OC)nc32)nc1 | PRKACA (Homo sapiens, UniProt P17612) | kinase activity |  | 0.5 µM |  | inhibition | 6% |
| Nc1ncnc2c1ncn2[C@@H]1O[C@H](COP(=O)(O)CP(=O)(O)OP(=O)(O)O)[C@@H](O)[C@H]1O | P2X purinoceptor 3 (P2RX3, Homo sapiens, UniProt P56373) | ion current, agonist, patch clamp | HEK293 | 1 µM |  | current ratio Mg2+-bound over free | 0.63 ± 0.065 |
| COc1cc(N)c(Cl)cc1C(=O)NC1CN2CCC1CC2 (centres unmarked) | G-protein coupled receptor 182 (GPR182, Homo sapiens, UniProt O15218) | β-arrestin recruitment, TANGO luminescence, item: GPR182 |  | concentration not given | relative to: basal luminescence | log2 fold change | 0.352 |
| CN(C(=O)n1cnc(-c2ccc[n+]([O-])c2)c1)C1CCCCC1 | CAMK2D (Homo sapiens, UniProt Q13557) | enzyme activity |  | 50 µM, together with: autocamtide-2 |  | inhibition | 10% |
| O=C(c1ccc(Cl)cc1)N1CCN2C(=O)N(OC(=O)N3CCOc4ccccc43)C(=O)C2C1 (centres unmarked) | NOTUM (Homo sapiens, UniProt Q6P988) | MS-based ABPP | SW-620 cells in situ | 10 µM, median ratio | relative to: compound over DMSO | probe labelling ratio | 1.02 |
